Published values gathered from unrelated publications.
± marks the error that the study gave.
Cell line: A-375

CC(C)c1cccc(C(C)C)c1N1CCN(c2c(C(C)C)cccc2C(C)C)C1=[Se].[Cl][Ag] — IC50 (cell growth or viability, MTT; 72 h): 0.4 µM
O=C1Nc2ccccc2C1n1nc(-c2c(O)c3ccccc3oc2=O)cc1-c1ccc(F)cc1 (stereo not drawn) — IC50 (cell growth or viability, SRB; 72 h): 6.25 µM
CCCC(CCC)C(=O)[O][Pt]1([OH])[O]C(=O)C(=O)[O]1.NC1CCCCC1N — IC50 (cytotoxicity; 72 h): 47.3 ± 2.53 µM
Cc1c(C)n(-c2c(C(C)C)cccc2C(C)C)c(=[Se])n1-c1c(C(C)C)cccc1C(C)C.[Cl][Ag] — IC50 (cell growth or viability, MTT; 72 h): 0.4 µM
C=C1C(=O)O[C@H]2CC3=C[C@@H](C/C(C)=C/[C@@H](OC(=O)/C=C/c4ccccc4)[C@H]12)OC3=O — IC50 (cell growth or viability, MTT; 24 h): 3.3 µM
CCCC(CCC)C(=O)[O][Pt]([Cl])([Cl])[O]C(=O)C(CCC)CCC.N.N — IC50 (cytotoxicity; 72 h): 1.25 ± 0.25 µM
COc1cccc(-c2ccc(Nc3ccc(CN(C)C)cc3)c(OC)c2F)c1 — IC50 (HTRF, refers to: phospho-Akt): > 1000 µM
N.N.O=C(CCCc1ccccc1)[O][Pt]([Cl])([Cl])[O]C(=O)CCCc1ccccc1 — IC50 (cytotoxicity; 72 h): 0.16 ± 0.02 µM
CC(C)c1cccc(C(C)C)c1-n1c(Cl)c(Cl)n(-c2c(C(C)C)cccc2C(C)C)c1=[Se].[Cl][Au] — IC50 (cell growth or viability, MTT; 72 h): 1.3 µM
O=C1c2ccc(O)cc2OC1(O)Cc1ccc(O)c(O)c1 (stereo not drawn) — IC50 (cell growth or viability, MTT; 72 h): > 400 µM
CC(C)c1cccc(C(C)C)c1-n1ccn(-c2c(C(C)C)cccc2C(C)C)c1=[Se].[Cl][Ag] — IC50 (cell growth or viability, MTT; 72 h): 0.5 µM
CCCC(CCC)C(=O)[O][Pt]([Cl])([Cl])[O]C(C)=O.N.N — IC50 (cytotoxicity; 72 h): 2.17 ± 0.53 µM
CC(=O)O[C@H]1CC[C@]2(C)[C@H]3CC=C4[C@@H]5[C@@H](C)[C@H](C)CC[C@]5(C(=O)O)CC[C@@]4(C)[C@]3(C)CC[C@H]2C1(C)C — IC50 (cell growth or viability, MTT; 24 h): 50.9 µM
CO[C@H]1C(=O)c2ccc(O)cc2O[C@@H]1c1ccc(O)c(O)c1 (relative stereo) — IC50 (cell growth or viability, MTT; 72 h): 338 µM
CC(=O)[O][Pt]([Cl])([Cl])[O]C(C)=O.N.N — IC50 (cytotoxicity; 72 h): 29.7 ± 5.16 µM
